Results pooled from the literature.
Each line is one published result; not all experiments were run side by side. Several values in a cell are separate wells, animals, samples, runs or records.
DDR1: Epithelial discoidin domain-containing receptor 1 (DDR1, Homo sapiens, UniProt Q08345)

`C[C@H]1CN(C(=O)c2cn(-c3ccnc(N)n3)c3cc(C#CC4(O)CCCCC4)ccc23)CCN1` gave an inhibition of 1% (DDR1; cell-free assay, TR-FRET; 1 µM).
`CCn1cc(C(=O)O)c(=O)c2c(N)c(F)c(NC3CCCCC3)cc21` gave an inhibition of -18.7% (Epithelial discoidin domain-containing receptor 1, phosphorylated by SRC (DDR1, Homo sapiens, UniProt Q08345); kinase activity; 0.1 µM, added: ATP at Km).
With `Cc1cccc(O[C@H]2CCC[C@@H](C(C)CNCc3ccncc3)C2)c1` (relative stereo) the inhibition was 0% (DDR1; cell-free assay; 1 µM).
For `NC(=O)[C@@H](O)C[C@H]1CCc2sc3ncnc(O[C@H]4CC[C@H](N5CCOCC5)CC4)c3c21`, the inhibition was 63% (DDR1; enzyme activity, inhibitor; 10 µM).
`CN1CCN(Cc2ccc(-c3ccc(CO[C@H]4CCC[C@@H]4NC(=O)c4cc(-c5cnn(C)c5)cnc4N)cc3)cc2)CC1` gave an inhibition of -5% (DDR1; enzyme activity, inhibitor; 0.1 µM).
`CCN1CCN(Cc2ccc(NC(=O)c3ccc(C)c(NC(=O)c4cncc(-c5cccs5)c4)c3)cc2C(F)(F)F)CC1` gave a remaining binding of 0.4% (DDR1; binding, competition with immobilised ligand; 1 µM).
With `CCN1CCN(Cc2ccc(C(=O)Nc3ccc(C)c(NCc4cnc5[nH]ccc5c4OC)c3)cc2C(F)(F)F)CC1` the remaining binding was 0.15% (DDR1; binding, competition with immobilised ligand; 1 µM).
For `CNC1C[S+]2CC[S+]3CC[S+](C1)[Ru-4]321([N]=C=S)[n]2c3ccc(OC)cc3c3c4c(c5cc(F)c[n+]1c5c32)C(=O)NC4=O` (stereo not shown), the remaining binding was 99% (DDR1; KinomeScan; 0.1 µM; relative to: untreated).
The remaining binding of `Cc1ccc(-c2c(/C=C(\C#N)C(=O)NC(C)C)n(CCCO)c3ncnc(N)c23)cc1` is reported as 57% (DDR1; cell-free assay, competition with immobilised ligand; 1 µM).
`CC(C)=CC1OC(C)(C)C2C=C3C(=O)C(Cl)=CC(O)C3C3C(O)C4OC4C(=O)C132` (stereo not shown) gave a remaining binding of 91% (DDR1; cell-free assay, competition with immobilised ligand; 10 µM).
`COc1cc(Nc2nc(C)cc(-c3cnn4nc(OC)ccc34)n2)cc(C(F)(F)F)c1` has a remaining activity of 99% (DDR1; inhibitor; 1 µM; relative to: control).
Under “log2 LFQ intensity”, `N[C@H]1CC[C@H](Nc2nccc(-c3cccnc3Oc3ccc(NC(=O)NC4CC4)c4ccccc34)n2)CC1` is recorded as 19.3 and 21.1 and 20.3 and 18.2 (DDR1; kinobead competition pulldown; HEK293/HCT116 lysate mixture; 10 µM, 1 h, 4 °C; lower = stronger competition).
`COc1c(Cl)cccc1Nc1c(-c2ccncc2C#C[C@@]2(C)CCCN2C(=O)/C=C/CN(C)C)[nH]c2c1C(=O)NCC2` gave a remaining binding of 8.6% (DDR1; cell-free assay, competition with immobilised ligand; 3 µM).

Repeated from above:
Under “log2 LFQ intensity”, `N[C@H]1CC[C@H](Nc2nccc(-c3cccnc3Oc3ccc(NC(=O)NC4CC4)c4ccccc34)n2)CC1` is recorded as 19.3 and 21.1 and 20.3 and 18.2 (DDR1; kinobead competition pulldown; HEK293/HCT116 lysate mixture; 10 µM, 1 h, 4 °C; lower = stronger competition).
With `CCN1CCN(Cc2ccc(C(=O)Nc3ccc(C)c(NCc4cnc5[nH]ccc5c4OC)c3)cc2C(F)(F)F)CC1` the remaining binding was 0.15% (DDR1; binding, competition with immobilised ligand; 1 µM).
